Published values of several laboratories.
Numbered parts are unrelated; each lists some results of a single study. Substitutions count along the parent as printed.

Block 1 — target: CCND3, cyclin fold, Cln2 fusion (human); method: yeast growth competition, sequencing; matrix: yeast; notes: weak parent motif; baseline: not given; reading: higher = stronger binding; parent: viral docking peptide; TSVRRALFTGGSD
Change	normalised enrichment score
TSVRRALFTGGCD [S12C]	-0.0463
TSVRRALFTGASD [G11A]	0.11
TSVERALFTGGSD [R4E]	-0.0895
TSVRIALFTGGSD [R5I]	0.0927
TSVRRALHTGGSD [F8H]	0.503
TSVRRALFTGGFD [S12F]	-0.0771
TSVRRALFTGGED [S12E]	0.0121
TIVRRALFTGGSD [S2I]	0.0728

Block 2 — observed: phage display binding; method: phage display panning NGS; form: peptide; notes: panning round 3; baseline: OGT-panned over input library
Target: UDP-N-acetylglucosamine--peptide N-acetylglucosaminyltransferase 110 kDa subunit (OGT, Homo sapiens, UniProt O15294)
Sequence of UniProt O15294 (whole entry, looked up): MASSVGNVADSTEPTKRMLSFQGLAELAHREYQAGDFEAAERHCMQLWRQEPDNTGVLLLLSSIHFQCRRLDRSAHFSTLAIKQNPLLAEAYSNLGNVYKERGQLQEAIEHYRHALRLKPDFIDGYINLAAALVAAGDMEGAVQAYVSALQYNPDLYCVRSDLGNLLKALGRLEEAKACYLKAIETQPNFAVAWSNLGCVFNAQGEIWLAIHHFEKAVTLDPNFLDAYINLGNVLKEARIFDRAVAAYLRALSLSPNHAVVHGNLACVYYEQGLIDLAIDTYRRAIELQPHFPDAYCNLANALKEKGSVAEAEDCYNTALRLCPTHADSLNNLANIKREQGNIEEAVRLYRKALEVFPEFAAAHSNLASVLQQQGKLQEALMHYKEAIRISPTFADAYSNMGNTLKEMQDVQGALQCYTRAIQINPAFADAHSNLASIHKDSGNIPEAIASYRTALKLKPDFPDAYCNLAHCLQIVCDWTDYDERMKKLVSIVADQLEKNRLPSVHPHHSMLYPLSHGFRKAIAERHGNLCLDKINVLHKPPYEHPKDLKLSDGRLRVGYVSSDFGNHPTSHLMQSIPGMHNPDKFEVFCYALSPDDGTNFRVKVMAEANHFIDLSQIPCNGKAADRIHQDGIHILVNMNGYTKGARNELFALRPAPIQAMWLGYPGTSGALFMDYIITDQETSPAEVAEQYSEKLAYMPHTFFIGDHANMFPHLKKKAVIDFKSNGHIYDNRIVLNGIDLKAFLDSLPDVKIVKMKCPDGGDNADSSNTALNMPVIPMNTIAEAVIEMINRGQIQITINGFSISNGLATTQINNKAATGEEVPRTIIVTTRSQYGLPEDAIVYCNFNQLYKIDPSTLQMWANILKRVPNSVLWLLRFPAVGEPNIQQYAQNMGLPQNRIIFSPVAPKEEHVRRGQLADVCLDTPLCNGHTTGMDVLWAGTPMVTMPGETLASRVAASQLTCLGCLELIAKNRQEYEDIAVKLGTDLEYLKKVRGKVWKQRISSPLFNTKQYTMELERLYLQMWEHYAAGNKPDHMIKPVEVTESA
Sequence	fold enrichment
VMELQFLPHYQIEAF	4.06
SFLKYQPKYPIVYNV	4.1
QLFPPVYIMKLDSQ	3.87
YEPMYLPQYQMIWNK	4.11
GADYLPKYQVVYNVR	2.1
FMPMYEIKYAKREDN	2.48
QSDFLPKYQLDLFSY	3.55
NVLIFPKYQISYSK	3.89

Block 3 — target: vanadate, free oxyanion; method: microfluidic competitive inhibition; matrix: in vitro, cell-free expressed; concentration: not given; reading: lower = stronger binding
Notes: derived from inhibition constants, unchanged parent 676 nM
Parent: PafA, mature enzyme, eGFP fusion (Elizabethkingia meningoseptica, UniProt Q9KJX5); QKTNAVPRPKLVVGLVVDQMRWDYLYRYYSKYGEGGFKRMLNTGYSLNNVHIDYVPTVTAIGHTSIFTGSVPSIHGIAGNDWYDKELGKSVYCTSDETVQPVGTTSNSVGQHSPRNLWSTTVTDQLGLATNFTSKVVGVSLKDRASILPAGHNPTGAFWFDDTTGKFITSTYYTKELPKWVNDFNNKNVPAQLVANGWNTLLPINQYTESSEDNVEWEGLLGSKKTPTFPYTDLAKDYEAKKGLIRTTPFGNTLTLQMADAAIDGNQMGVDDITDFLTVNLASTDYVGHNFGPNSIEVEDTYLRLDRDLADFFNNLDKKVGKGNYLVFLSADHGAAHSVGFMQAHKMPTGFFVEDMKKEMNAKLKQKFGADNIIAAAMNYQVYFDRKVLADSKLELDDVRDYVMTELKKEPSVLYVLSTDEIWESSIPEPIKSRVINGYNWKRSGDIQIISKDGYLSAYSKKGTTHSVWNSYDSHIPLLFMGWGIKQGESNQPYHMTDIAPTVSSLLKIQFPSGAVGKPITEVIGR
Change	oxyanion analog dissociation constant [µM]
N361V	0.708
R434V	0.923
L254G	1.18
Q192V	0.82
Y231V	0.674
V12A	0.674
S504G	0.604
W180V	2.32

Block 4 — observed: binding; method: radioligand binding; concentration: 10 µM
Target: Muscarinic acetylcholine receptor M3 (CHRM3, Homo sapiens, UniProt P20309)
Sequence of UniProt P20309 (whole entry, looked up): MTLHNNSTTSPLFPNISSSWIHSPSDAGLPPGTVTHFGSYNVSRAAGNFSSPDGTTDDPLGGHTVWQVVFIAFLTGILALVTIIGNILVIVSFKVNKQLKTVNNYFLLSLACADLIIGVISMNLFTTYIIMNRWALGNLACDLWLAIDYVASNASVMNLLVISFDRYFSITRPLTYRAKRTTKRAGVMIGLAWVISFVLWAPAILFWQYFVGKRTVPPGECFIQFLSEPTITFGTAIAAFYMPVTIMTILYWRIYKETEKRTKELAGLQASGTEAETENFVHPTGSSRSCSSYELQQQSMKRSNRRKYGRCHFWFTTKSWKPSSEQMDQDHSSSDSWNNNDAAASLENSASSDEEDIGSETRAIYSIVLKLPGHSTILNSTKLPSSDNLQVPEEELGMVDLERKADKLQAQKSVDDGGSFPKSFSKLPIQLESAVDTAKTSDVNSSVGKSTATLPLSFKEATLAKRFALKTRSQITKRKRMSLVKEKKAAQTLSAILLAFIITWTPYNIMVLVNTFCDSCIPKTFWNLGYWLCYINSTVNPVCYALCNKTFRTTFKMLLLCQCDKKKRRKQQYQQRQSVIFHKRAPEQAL
SMILES	inhibition
CNC(=O)c1ccc(Nc2ncc(C(F)(F)F)c(NCc3nccnc3N(C)S(C)(=O)=O)n2)cc1	23.8%
CC1=C(C#N)C(c2ccc3c(c2)c(NC(=O)c2ccccc2C)nn3C)C(C#N)=C(C)N1	9.49%
O=C(O)c1cc(-c2ccc(C3CCNCC3)cc2)c2ccc(-c3ccc(C(F)(F)F)cc3)cc2c1	9.47%
COc1cc(-c2cn(C3CCc4ccccc4N(CC(F)(F)F)C3=O)nn2)ccc1-n1ccc(C)n1 (centres unmarked)	-6.94%
O=C(Nc1cccnn1)N1CCC(=Cc2cccc(Oc3ccc(C(F)(F)F)cn3)c2)CC1	27.5%
CC1=C(C#N)[C@@H](c2ccc3[nH]nc(C)c3c2)C(C#N)=C(c2ccc(Cl)cc2)N1	8.81%
Cc1c[nH]c2nccc(Oc3c(F)cc(Nc4cc(Cl)nc(N)n4)cc3F)c12	-0.34%
CC(C)(O)c1cncc(-c2nc3ccc(F)cc3n2C2CC2)c1	1.04%
C[C@@H]1CN(c2cc(-c3nn(C)c4ccc(OC5(C)CC5)cc34)ncn2)C[C@H](C)O1	6.03%
CN([C@@H]1CCc2c(CC(=O)O)c3cc(S(C)(=O)=O)ccc3n2C1)S(=O)(=O)c1ccc(F)cc1	-13.3%
CC(=O)Nc1c(F)cc(C(=O)N[C@H]2CC[C@H](O)CC2)cc1O[C@@H](C)c1ccccc1	16%
Cc1nc(Cc2cccc(C(F)(F)F)c2)sc1-c1ccc(C(N)=O)nc1	-11.9%
CC(C)CC(=O)N1CCc2nc(-c3ccc(Br)cc3)nc(N(C)Cc3ccccc3)c2C1	13.5%
Nc1c(C(=O)NCc2ccc(C(=O)NCCCC3CCCCC3)cc2)cnn1-c1ccccc1	25.2%

Some of these lines once more (block 1):
Change	normalised enrichment score
TSVRIALFTGGSD [R5I]	0.0927
TSVRRALHTGGSD [F8H]	0.503
TIVRRALFTGGSD [S2I]	0.0728
TSVRRALFTGGCD [S12C]	-0.0463
TSVRRALFTGGED [S12E]	0.0121
